Measured values pooled from the literature.
Protocols differ between the studies behind these lines. ± gives the spread as reported. ≈ marks a conversion by molar mass, not a printed value.
Sequence of UniProt P13945 (whole entry, looked up): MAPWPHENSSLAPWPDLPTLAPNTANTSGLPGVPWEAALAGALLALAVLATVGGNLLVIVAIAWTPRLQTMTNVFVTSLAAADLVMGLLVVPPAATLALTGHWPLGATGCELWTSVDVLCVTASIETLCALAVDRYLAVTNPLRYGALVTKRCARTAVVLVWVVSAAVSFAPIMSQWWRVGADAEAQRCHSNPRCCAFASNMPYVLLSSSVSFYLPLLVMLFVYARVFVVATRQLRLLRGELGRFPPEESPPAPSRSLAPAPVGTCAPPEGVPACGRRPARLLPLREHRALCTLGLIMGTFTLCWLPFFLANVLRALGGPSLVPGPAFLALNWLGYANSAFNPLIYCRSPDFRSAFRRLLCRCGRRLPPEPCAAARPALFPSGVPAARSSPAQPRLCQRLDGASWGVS
Sequence of UniProt Q9NZP8 (whole entry, looked up): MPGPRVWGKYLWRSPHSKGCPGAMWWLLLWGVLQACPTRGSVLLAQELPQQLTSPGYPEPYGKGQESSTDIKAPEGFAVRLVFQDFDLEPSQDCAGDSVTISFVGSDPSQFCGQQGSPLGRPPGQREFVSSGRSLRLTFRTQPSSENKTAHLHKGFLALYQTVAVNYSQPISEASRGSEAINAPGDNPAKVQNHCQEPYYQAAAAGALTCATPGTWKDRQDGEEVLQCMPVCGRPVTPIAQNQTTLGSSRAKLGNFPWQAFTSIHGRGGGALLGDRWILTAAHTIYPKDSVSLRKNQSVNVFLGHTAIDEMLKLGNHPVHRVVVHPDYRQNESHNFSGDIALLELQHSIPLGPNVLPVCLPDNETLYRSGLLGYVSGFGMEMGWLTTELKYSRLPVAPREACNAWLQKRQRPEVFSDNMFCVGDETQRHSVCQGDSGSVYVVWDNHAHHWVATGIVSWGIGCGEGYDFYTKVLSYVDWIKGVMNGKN
Sequence of UniProt Q8TDV2 (whole entry, looked up): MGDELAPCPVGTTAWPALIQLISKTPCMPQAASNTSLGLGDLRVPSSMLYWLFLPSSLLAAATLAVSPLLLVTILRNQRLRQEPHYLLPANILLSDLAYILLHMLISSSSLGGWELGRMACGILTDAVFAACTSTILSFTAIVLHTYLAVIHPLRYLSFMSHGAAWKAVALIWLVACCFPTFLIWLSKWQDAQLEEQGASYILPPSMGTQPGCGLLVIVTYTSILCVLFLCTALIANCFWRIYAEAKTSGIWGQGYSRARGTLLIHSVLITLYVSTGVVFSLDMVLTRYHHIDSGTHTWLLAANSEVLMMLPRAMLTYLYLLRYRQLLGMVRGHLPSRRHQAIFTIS

| Compound | target or system | assay | test system | setting | how to read | endpoint | value |
| --- | --- | --- | --- | --- | --- | --- | --- |
| O=C1Nc2cc3[nH]nc(-c4ccncc4)c3cc2CN1Cc1ccccc1 |  | CTCAE v4.03 | advanced solid tumour patients | intravenous, 0.45 mg/kg, schedules 1/2 |  | patients with back pain | 100% |
| C[C@@H](NC(=O)N1C(=O)[C@H](Cc2ccnc(N)c2)[C@H]1C(=O)O)C1CCCCC1 |  |  | healthy adult Chinese volunteers | continuous intravenous infusion, 1.5 mg/kg/h, 5-day infusion, CTCAE 5.0 grading |  | incidence of urine occult blood positive | 12.5% |
| O=C(c1ccc(Cl)cc1)N1CCN2C(=O)N(OC(=O)N3CCOc4ccccc43)C(=O)C2C1 (centres unmarked) | Complement C1r subcomponent-like protein (C1RL, Homo sapiens, UniProt Q9NZP8) | MS-based ABPP | SW-620 conditioned medium | 10 µM, 1 h, 37 °C | relative to: compound over DMSO, lower = more inhibition | mean protein ratio | 1.07 |
| Cc1ccccc1NC(=O)Nc1ccc(CC(=O)N[C@@H](CCCCNC(=O)/C=C/c2cccnc2)C(=O)N[C@@H](CCCC(=O)O)C(=O)NC2(C(=O)NCCOCCOCCOCCOCC(=O)N[C@@H](CCCCNC(=S)Nc3ccc(CCCN(CCN4CCN(CP(=O)(O)O)CCN(CP(=O)(O)O)CC4)CC(=O)O)cc3)C(N)=O)CCCCC2)cc1 [gallium-68 labelled] |  |  | mouse, liver | intravenous, 4 h post-injection |  | tissue uptake | 4.6 ± 1 %ID/g |
| C[C@]1(CO)Cc2ncn(-c3ccc(C#N)c(Cl)c3)c2C(=O)O1 |  |  | human, Japanese, plasma | 1 days, multiple rising dose, range of means |  | apparent terminal t1/2 | 5.4 to 6 h |
| O=S(=O)(Nc1ccccc1)c1ccc(NC(=S)Nc2ccccc2)cc1 |  | refers to: LY% | female mouse, blood | oral, 80 mg/kg daily, 14 days |  | blood cell fraction | 71.3% |
| COC(=O)[C@H]1[C@H]2C[C@@H]3c4[nH]c5cc(OC)ccc5c4CCN3C[C@H]2C[C@@H](OC(=O)/C=C/c2cc(OC)c(OC)c(OC)c2)[C@@H]1OC | African green monkey cells |  |  | 5 days |  | CC50 | 5.5 µM |
| COc1cc(Nc2ncc(F)c(Nc3ccc4c(n3)NC(=O)C(C)(C)O4)n2)cc(OC)c1OC | ADRB3 (Homo sapiens, UniProt P13945) |  |  |  |  | IC50 | > 10 µM |
| C[C@]1(O)C[C@@](N)(c2ccc(-c3nc4n(c3-c3ccccc3)COc3ccncc3-4)cc2)C1 |  |  | human, advanced or metastatic solid tumours | dose not given, intermittent dose escalation total |  | patients with AST increased TEAE | 0% |
| CCC[C@@](N)(CO)CCc1ccc(OCCCCCC(C)C)cc1 |  |  | male hound dog, plasma | oral, 2.5 mg/kg, solution, geometric mean |  | AUC(0-t) | 2.28 µM·h |
| CC[C@H](C)[C@@H]1NC(=O)[C@@H]2CCCN2C(=O)[C@H](CC(C)C)NC(=O)[C@H](CC(C)C)NC(=O)CNC(=O)[C@@H](NC(=O)[C@@H](NC(=O)[C@H](CC(=O)O)NC(=O)CNC(=O)[C@@H](NC(=O)[C@H](C)NC(=O)CNC(=O)[C@H](CCCCN)NC(=O)[C@H](CC(C)C)NC(=O)[C@H](CC(C)C)NC(=O)[C@H](CCCCN)NC(=O)CNC(=O)[C@@H](NC(=O)[C@@H](N)CC(C)C)C(C)C)C(C)C)C(C)C)CSSC[C@@H](C(=O)O)NC1=O |  | RNA-seq, refers to: Hcst mRNA | mouse traumatic brain injury, frontal cortex and hippocampus | dose not given | relative to: TBI plus compound vs TBI | log2 fold change | -2.67 |
| CCN1[C@@H](C(=O)NC23CCC(C(=O)O)(CC2)CC3)[C@H](c2cccc(Cl)c2F)[C@]2(C(=O)Nc3cc(Cl)ccc32)C12CCCCC2 |  |  | patients with advanced solid tumours | oral, dose not given, all doses |  | grade 3/4 anemia incidence | 23.8% |
| CC[C@H](C)[C@H](NC(=O)[C@H](Cc1ccccc1)NC(=O)[C@H](CCC(=O)O)NC(=O)[C@H](CCCNC(=N)N)NC(=O)[C@H](C)NC(=O)[C@H](C)NC(=O)[C@H](CCC(N)=O)NC(=O)[C@H](CCC(=O)O)NC(=O)[C@H](CCC(=O)O)NC(=O)[C@H](CC(C)C)NC(=O)[C@H](Cc1ccc(O)cc1)NC(=O)[C@H](CO)NC(=O)[C@H](CO)NC(=O)[C@@H](NC(=O)[C@H](CC(=O)O)NC(=O)[C@H](CO)NC(=O)[C@@H](NC(=O)[C@H](Cc1ccccc1)NC(=O)[C@@H](NC(=O)CNC(=O)[C@H](CCC(=O)O)NC(=O)[C@H](C)NC(=O)CCc1c[nH]cn1)[C@@H](C)O)[C@@H](C)O)C(C)C)C(=O)N[C@@H](C)C(=O)N[C@@H](Cc1c[nH]c2ccccc12)C(=O)N[C@@H](CC(C)C)C(=O)N[C@H](C(=O)N[C@@H](CCCNC(=N)N)C(=O)NCC(=O)N[C@@H](CCCNC(=N)N)C(=O)N[C@@H](CCCCNC(=O)COCCOCCNC(=O)COCCOCCNC(=O)CC[C@H](NC(=O)CCCCCCCCCCCCCCCCC(=O)O)C(=O)O)C(=O)NCC(=O)NCC(=O)N[C@@H](CO)C(=O)N[C@@H](CCCCNc1c(NCCCCCN(O)C(=O)CCC(=O)NCCCCCN(O)C(=O)CCC(=O)NCCCCCN(O)C(C)=O)c(=O)c1=O)C(=O)O)C(C)C [zirconium-89 labelled] |  |  | rat, colon | iv, 3 nmol/kg, 4 h, ex vivo |  | tissue uptake | 0.43 %ID/g |
| O=C(Nc1ccccc1)C1CCN(C(=O)Oc2cccnc2)CC1 |  | refers to: ear and labyrinth disorders | healthy women | oral, 20 mg, 7 days |  | subjects with adverse event | 0% |
| C[C@@H]1OC(=O)NN=C1c1ccc(-c2ccc(F)cc2)c(C(F)(F)F)c1 |  | phase I trial, refers to: non-cardiac chest pain | human patients | 20 mg load, 1 mg daily, worst grade 1 |  | patients with TEAE | 0% |
| CO[C@H]1C[C@@H]2CC[C@@H](C)[C@@](O)(O2)C(=O)C(=O)N2CCCC[C@H]2C(=O)O[C@H]([C@H](C)C[C@@H]2CC[C@@H](OC(=O)NCCOCCOCCOCCOCCOCCOCCOCCOCCC(=O)N3CCc4cc(Cn5nc(-c6ccc7oc(N)nc7c6)c6c(N)ncnc65)ccc4C3)[C@H](OC)C2)C[C@@H](O)[C@H](C)/C=C(\C)[C@@H](O)[C@@H](OC)C(=O)[C@H](C)C[C@H](C)/C=C/C=C/C=C/1C |  | phase 1 dose escalation, refers to: decreased appetite | advanced solid tumour patients | intravenous, 12 mg weekly, any grade |  | TRAE incidence | 8.3% |

| Compound | target or system | assay | test system | setting | how to read | endpoint | value |
| --- | --- | --- | --- | --- | --- | --- | --- |
| C[C@@H]1NC(=O)[C@H](CCCCNC(=O)CO/N=C/C(=O)NCCCC[C@@H]2NC(=O)[C@@H](Cc3ccccc3)NC(=O)[C@H](CC(=O)O)NC(=O)CNC(=O)[C@H](CCCNC(=N)N)NC2=O)NC(=O)CNC(=O)[C@@H]2CCCN2C(=O)[C@H](CCCCNC(=O)CO/N=C/C(=O)NCCCC[C@@H]2NC(=O)[C@@H](Cc3ccccc3)NC(=O)[C@H](CC(=O)O)NC(=O)CNC(=O)[C@H](CCCNC(=N)N)NC2=O)NC(=O)[C@H](CCCCNC(=O)CCNC(=O)CCNC(=O)CCNC(=O)[C@H](CCCCN)NC(=O)[C@H](Cc2ccccc2)NC(=O)CNC(=O)CN2CCCNCCNCCCNCC2)NC(=O)[C@H](CCCCNC(=O)CO/N=C/C(=O)NCCCC[C@@H]2NC(=O)[C@@H](Cc3ccccc3)NC(=O)[C@H](CC(=O)O)NC(=O)CNC(=O)[C@H](CCCNC(=N)N)NC2=O)NC(=O)CNC(=O)[C@@H]2CCCN2C(=O)[C@H](CCCCNC(=O)CO/N=C/C(=O)NCCCC[C@@H]2NC(=O)[C@@H](Cc3ccccc3)NC(=O)[C@H](CC(=O)O)NC(=O)CNC(=O)[C@H](CCCNC(=N)N)NC2=O)NC1=O [copper-64 labelled] |  | biodistribution after PET | mouse, U-87 MG tumour xenograft, kidney | intravenous, 24 h |  | tissue uptake | 10.9 ± 5.03 %ID/g |
| Cn1cc(-c2nc(N[C@@H]3CCCC[C@@H]3N)c(F)c3c2C(=O)NC3)cn1 |  | refers to: subdural haematoma | patients with relapsed or refractory AML | oral, 160 mg once daily |  | hemorrhagic adverse events | 11% |
| CC(C)[C@@H]1NC(=O)CNC(=O)[C@H](CC(N)=O)NC(=O)[C@H](CCCNC(=N)N)NC(=O)[C@H](Cc2ccc(O)cc2)NC(=O)[C@H](C(C)C)NC(=O)[C@@H](NC(=O)[C@@H](NC(=O)[C@H](CC(N)=O)NC(=O)[C@H](Cc2c[nH]c3ccccc23)NC(=O)[C@H](C)NC(=O)[C@H](Cc2ccccc2)NC(=O)CN)C(C)C)CSSC[C@@H](C(=O)N[C@@H](Cc2cnc[nH]2)C(=O)N[C@@H](CCCNC(=N)N)C(=O)N[C@@H](CCCNC(=N)N)C(=O)N[C@@H](C)C(=O)N[C@@H](CC(N)=O)C(N)=O)NC(=O)[C@H](C(C)C)NC(=O)[C@H](CCCNC(=N)N)NC1=O |  |  | ICR mouse, serum | ip, 5 mg/kg, 3 d dosing, blood day 5 |  | blood urea nitrogen | 9.97 ± 0.52 mmol/L |
| Nc1ncc(-c2nc(N3CCOCC3)nc(N3CCOCC3)n2)c(C(F)F)n1 |  | shake flask | buffer | 24 h, pH 4.5, 25 °C |  | thermodynamic solubility | 3.8 µM (≈ 1.5 µg/mL) |
| CC(C)(O)c1cc(Nc2cc(Oc3cn(C4CC4)nc3C3CCOCC3)ccn2)ccn1 |  | Nausea | advanced cancer patients, dose escalation | oral, dose not given, 2 weeks on/off, all causality grade ≥3 |  | treatment-emergent adverse events | 3% |
| Oc1ccc2c3c1O[C@H]1[C@@H](O)CC[C@@]4(O)[C@@H](C2)N(CC2CCC2)CC[C@]314 | Probable G-protein coupled receptor 148 (GPR148, Homo sapiens, UniProt Q8TDV2) | β-arrestin recruitment, TANGO luminescence, refers to: GPR148 |  | concentration not given | relative to: basal luminescence | log2 fold change | 0.097 |
| [18FH] |  |  | BALB/c mouse, large intestine | intravenous, 1 h |  | tissue uptake | 1.77 ± 0.57 %ID/g |
| CCCSc1ccc2nc(NC(=O)OC)[nH]c2c1 |  |  | mouse, blood | oral, 50 mg/kg, tolerability, mean |  | mean corpuscular volume | 45.5 fL |
| CC[C@H](C)[C@H](N)C(=O)N[C@@H](CC(N)=O)C(=O)N[C@@H](CC(C)C)C(=O)N[C@@H](CCCCN)C(=O)N[C@@H](CCCCN)C(=O)N[C@@H](CC(C)C)C(=O)N[C@@H](C)C(=O)N[C@@H](CCCCN)C(=O)N[C@@H](CC(C)C)C(=O)NCCCC[C@H](NC(=O)[C@H](CC(C)C)NC(=O)[C@H](CCCCN)NC(=O)[C@H](C)NC(=O)[C@H](CC(C)C)NC(=O)[C@H](CCCCN)NC(=O)[C@H](CCCCN)NC(=O)[C@H](CC(C)C)NC(=O)[C@H](CC(N)=O)NC(=O)[C@@H](N)[C@@H](C)CC)C(=O)NCCCC[C@H](NC(=O)[C@H](CCCCNC(=O)[C@H](CC(C)C)NC(=O)[C@H](CCCCN)NC(=O)[C@H](C)NC(=O)[C@H](CC(C)C)NC(=O)[C@H](CCCCN)NC(=O)[C@H](CCCCN)NC(=O)[C@H](CC(C)C)NC(=O)[C@H](CC(N)=O)NC(=O)[C@@H](N)[C@@H](C)CC)NC(=O)[C@H](CC(C)C)NC(=O)[C@H](CCCCN)NC(=O)[C@H](C)NC(=O)[C@H](CC(C)C)NC(=O)[C@H](CCCCN)NC(=O)[C@H](CCCCN)NC(=O)[C@H](CC(C)C)NC(=O)[C@H](CC(N)=O)NC(=O)[C@@H](N)[C@@H](C)CC)C(=O)NCCC(=O)O |  |  | human red blood cells | 2 h, 37 °C |  | hemolytic concentration | ~15 µM |
| COc1cc2c(Oc3ccc4[nH]c(C)cc4c3F)ccnc2cc1OCC1(N)CC1 |  |  | paediatric recurrent refractory sarcoma | concentration not given, whole group |  | grade 3 Myalgia | 0% |
| CCc1nc(C(N)=O)c(Nc2ccc(N3CCC(N4CCN(C)CC4)CC3)c(OC)c2)nc1NC1CCOCC1 |  |  | patients, plasma | oral, 80 mg once daily, cycle 1 day 15, median |  | Cmin | 223 ng/mL |
| CCc1ccc(CC/C=C/c2ccc3c(c2)C(=O)CC3)cc1 |  |  | Sprague-Dawley rat, female | oral, 450 mg/kg/day, 14 days |  | LDH serum activity | 370 U/L |
| COC[C@@H](CC(C)C)NC(=O)c1ccc(C)c(C)c1 |  |  | bone marrow erythrocytes, mouse Hsd:ICR (CD-1), male | oral, 624 mg/kg, 24 h |  | PCE to total erythrocyte ratio | 0.485 |
| COc1cccc([C@@H](C)NCCCc2ccccc2Cl)c1 | African green monkey cells |  |  | 5 days |  | CC50 | 28.2 µM |
| N=C(N)NCCC[C@@H](NC(=O)[C@@H](N)Cc1ccccc1)C(=O)N[C@@H](Cc1ccccc1)C(=O)N[C@@H](CCCCN)C(N)=O |  |  | early Huntington's disease patients, plasma | subcutaneous, 25 mg daily, day 7, median |  | apparent volume of distribution | 27.8 L |
| O=[N+]([O-])c1ccc2c(c1)S(=O)(=O)C=C2 |  |  | male C57BL/6 mice, blood | intraperitoneal, 10 mg/kg, day 8, group average |  | haemoglobin | 170 g/L |

A few entries again:
| Compound | target or system | assay | test system | setting | how to read | endpoint | value |
| --- | --- | --- | --- | --- | --- | --- | --- |
| COC(=O)[C@H]1[C@H]2C[C@@H]3c4[nH]c5cc(OC)ccc5c4CCN3C[C@H]2C[C@@H](OC(=O)/C=C/c2cc(OC)c(OC)c(OC)c2)[C@@H]1OC | African green monkey cells |  |  | 5 days |  | CC50 | 5.5 µM |
| COc1cc(Nc2ncc(F)c(Nc3ccc4c(n3)NC(=O)C(C)(C)O4)n2)cc(OC)c1OC | ADRB3 (Homo sapiens, UniProt P13945) |  |  |  |  | IC50 | > 10 µM |
| C[C@]1(O)C[C@@](N)(c2ccc(-c3nc4n(c3-c3ccccc3)COc3ccncc3-4)cc2)C1 |  |  | human, advanced or metastatic solid tumours | dose not given, intermittent dose escalation total |  | patients with AST increased TEAE | 0% |
